Measured values collected from several papers.
Protocols differ between the studies behind these lines. ± marks the error that the study gave.
Organism: HIV-1

CC(=NNC(=O)CN1c2c(-c3ccccc3)n[nH]c2-c2ccccc2S1(=O)=O)c1ccc(C)s1 has an EC90 of greater than 100000 nM (viral replication; PBMC).
For Cc1cn([C@H]2C[C@H](N=[N+]=[N-])[C@@H](CO)O2)c(=O)[nH]c1=O, the EC90 was 15 nM (viral replication; PBMC, LAI).
CC(=NNC(=O)CN1c2c(-c3ccccc3)n[nH]c2-c2ccccc2S1(=O)=O)c1ccc(Br)s1 gave an EC90 of greater than 100000 nM (viral replication; PBMC).
For Cc1ccc(N2C(=O)CCC2(CN)c2ccc(OCc3ccccc3)cc2)cc1 (stereo not drawn), the EC90 was 41500 nM (viral replication; human PBMC, LAI).
CC(=NNC(=O)CN1c2c(-c3ccccc3)n[nH]c2-c2ccccc2S1(=O)=O)c1cc2ccccc2oc1=O gave an EC90 of 85600 nM (viral replication; PBMC).
With Cc1cn([C@H]2C[C@H](N=[N+]=[N-])[C@@H](CO)O2)c(=O)[nH]c1=O the IC50 was 185 ± 26.4 nM (virus neutralization; CZA97).
With Cc1nc(C(NC(=O)c2ccc(-c3ccc(Cl)cc3)[nH]2)C2CCCCN2)sc1CO (mixture of isomers) the sensitive viruses was 82% (viral entry; TZM-bl, panel of 56 Env pseudoviruses; up to 3 µM).
For N#C[C@]1(CO)O[C@@H](n2cnc3c(N)nc(N)nc32)C[C@@H]1O, the IC50 was 0.16 nM (NL4-3 wild type).
The IC50 of CC[C@H](C)[C@H](NC(=O)[C@H](CC(C)C)NC(=O)[C@H](CCC(=O)O)NC(=O)[C@H](CCC(=O)O)NC(=O)[C@@H](NC(=O)[C@H](CCCCN)NC(=O)[C@H](CCCCN)NC(=O)[C@@H](NC(=O)[C@H](Cc1ccc(O)cc1)NC(=O)[C@H](CCC(=O)O)NC(=O)[C@H](CCC(=O)O)NC(=O)[C@@H](NC(=O)[C@H](CCCCN)NC(=O)[C@H](CCCCN)NC(=O)[C@H](CC(=O)O)NC(=O)[C@H](Cc1c[nH]c2ccccc12)NC(=O)[C@H](CCC(=O)O)NC(=O)[C@H](CCC(=O)O)NC(=O)[C@H](Cc1c[nH]c2ccccc12)NC(=O)[C@@H](NC(=O)[C@@H](N)CCSC)[C@@H](C)O)[C@@H](C)CC)[C@@H](C)O)[C@@H](C)CC)C(=O)N[C@@H](CCCCN)C(=O)N[C@@H](CCCCN)C(=O)N[C@@H](CO)C(=O)O is reported as 14.8 ± 0.3 nM (virus neutralization; DU422).
